Experimental data gathered from unrelated publications.
Every numbered part comes from another study and shows a few of its results, in no order.
UniProt P29320, sequence (whole entry, looked up): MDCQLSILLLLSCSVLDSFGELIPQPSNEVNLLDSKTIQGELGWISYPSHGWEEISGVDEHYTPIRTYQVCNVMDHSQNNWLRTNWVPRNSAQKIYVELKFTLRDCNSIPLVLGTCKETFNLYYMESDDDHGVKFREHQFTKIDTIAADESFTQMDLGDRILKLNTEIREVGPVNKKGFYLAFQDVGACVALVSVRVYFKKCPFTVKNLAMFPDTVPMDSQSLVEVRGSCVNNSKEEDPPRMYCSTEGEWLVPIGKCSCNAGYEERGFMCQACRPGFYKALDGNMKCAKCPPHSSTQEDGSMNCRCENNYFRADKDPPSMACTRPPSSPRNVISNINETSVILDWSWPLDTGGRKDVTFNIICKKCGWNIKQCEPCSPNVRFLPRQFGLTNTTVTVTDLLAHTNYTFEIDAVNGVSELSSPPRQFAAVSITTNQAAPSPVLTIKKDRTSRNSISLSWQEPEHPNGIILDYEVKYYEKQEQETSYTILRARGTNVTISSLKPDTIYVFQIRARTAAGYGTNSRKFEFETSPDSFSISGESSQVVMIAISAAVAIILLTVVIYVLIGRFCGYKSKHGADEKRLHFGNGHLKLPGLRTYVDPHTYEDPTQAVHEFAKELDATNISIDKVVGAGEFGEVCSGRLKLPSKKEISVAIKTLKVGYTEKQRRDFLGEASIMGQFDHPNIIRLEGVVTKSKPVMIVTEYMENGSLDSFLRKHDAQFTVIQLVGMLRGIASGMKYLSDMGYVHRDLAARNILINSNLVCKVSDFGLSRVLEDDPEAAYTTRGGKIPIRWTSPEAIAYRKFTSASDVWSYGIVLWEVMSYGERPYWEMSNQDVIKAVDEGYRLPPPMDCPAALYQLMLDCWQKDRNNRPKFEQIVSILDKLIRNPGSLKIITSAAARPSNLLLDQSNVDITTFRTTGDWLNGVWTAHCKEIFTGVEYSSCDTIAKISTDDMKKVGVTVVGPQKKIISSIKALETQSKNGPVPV

Series 1
Target: Transcription factor SOX-2, HMG box (Sox2, Mus musculus, UniProt P48432, residues 41-119)
UniProt P48432, sequence (41-119, looked up): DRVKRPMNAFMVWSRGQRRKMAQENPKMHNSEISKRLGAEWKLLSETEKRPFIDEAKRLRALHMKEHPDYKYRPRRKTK
Technique: Spec-seq
Form: double-stranded DNA, one strand shown
Medium: in vitro
Tested at: not given
Setting: whole probe, mean of replicates
Baseline: not given
Direction: lower = stronger binding
Constant ends, left off below: GAGTCGTCTCGTCAGCAC … CCGTAGAGCACTCAGGTC
`GCCAGTT`: “relative binding energy” 0.734 ln ratio.
`CTTTGTT` — result for “relative binding energy”: -2.56 ln ratio.
Under “relative binding energy”, `ACAAGTT` is recorded as -0.182 ln ratio.
`CATACCA`: “relative binding energy” 0.214 ln ratio.
Under “relative binding energy”, `CTATGTT` is recorded as -0.347 ln ratio.
For `CATAATT`, “relative binding energy” read -0.661 ln ratio.
For `CATGGTC`, “relative binding energy” read -0.0576 ln ratio.
Under “relative binding energy”, `GAACGTT` is recorded as 1.15 ln ratio.

Series 2
Target: Interferon regulatory factor 5, full length, phosphomimetic (IRF5, Homo sapiens, UniProt Q13568-2, residues 1-514, K96S/S451D/S453D/S456D/S462D)
Technique: protein-binding microarray
Form: double-stranded DNA, one strand shown
Medium: in vitro
Tested at: 250 nM
Setting: 60-bp whole probe
With: salmon DNA 0.4 mg/ml
Baseline: random background probes
Direction: higher = stronger binding
Constant ends, left off below: GCCTAGCAC … GTCTTGATTCGCTTGACGCTGCTG
With `TAACTTTTTTTTTTCCCTGAGTGCTAG` the log fluorescence was 0.915 z-score.
With `CTCTAAGACACAAGATCAGAGTGCTAG` the log fluorescence was -0.296 z-score.
`GACGGTATGCTTTTCCTGACGTGCTAG` gave a log fluorescence of -0.0024 z-score.
`GACGGTTTCGGGACCGGGGACGTGCTA` has a log fluorescence of 5.35 z-score.
`TTATGTTTCGGGTATCGGTTAGTGCTA` has a log fluorescence of 9.56 z-score.
`GACGATCTCAGACAGGAGACGTGCTAG` has a log fluorescence of -0.327 z-score.
`GGCTGTTTGGTCCTGATCCTGTGCTAG` gave a log fluorescence of -0.334 z-score.
`GACGGTTGCGGTTCCGGGACGTGCTAG` gave a log fluorescence of 0.48 z-score.

Mixed results
With CO[C@H]1C[C@@H]2CC[C@@H](C)[C@@](O)(O2)C(=O)C(=O)N2CCCC[C@H]2C(=O)O[C@H]([C@H](C)C[C@@H]2CC[C@@H](O)[C@H](OC)C2)CC(=O)[C@H](C)/C=C(\C)[C@@H](O)[C@@H](OC)C(=O)[C@H](C)C[C@H](C)/C=C/C=C/C=C/1C the remaining activity was 109% (EPHA3 (Homo sapiens, UniProt P29320); enzyme activity, inhibitor; 0.5 µM; baseline: control).
CN(C)CC#Cc1ccc(OCCCc2sc(N3CCc4cccc(C(=O)Nc5nc6ccccc6s5)c4C3)nc2C(=O)O)c(F)c1 gave a remaining binding of 100% (SRC (Homo sapiens, UniProt P12931); cell-free assay, competition with immobilised ligand; 1 µM).

Some of these lines once more (series 2):
`GACGGTATGCTTTTCCTGACGTGCTAG` gave a log fluorescence of -0.0024 z-score.
`GACGGTTGCGGTTCCGGGACGTGCTAG` gave a log fluorescence of 0.48 z-score.
